Results from different studies.
Compare with care: the assays were run in different laboratories.
Organism: Pseudomonas aeruginosa

With `CC(C)C[C@H](NC(=O)CN)C(=O)N[C@@H](CC(C)C)C(=O)N[C@@H](CCCCN)C(=O)N[C@@H](CC(C)C)C(=O)N[C@@H](CC(C)C)C(=O)N[C@@H](CCCCN)C(=O)N[C@@H](CCCCN)C(=O)N[C@@H](CC(C)C)C(=O)N[C@@H](CC(C)C)C(=O)N[C@@H](CCCCN)C(=O)N[C@@H](CC(C)C)C(=O)N[C@@H](CC(C)C)C(=O)N[C@@H](CCCCN)C(N)=O` the MIC was over 19 µM (ATCC 19606, CAMHB; 18 h, 37 °C).
`CC1C(=NNC(=O)c2ccncc2)C(C)C(c2ccc(Br)cc2)OC1c1ccc(Br)cc1` (stereo not drawn) has an MIC of 6.3 µg/mL (microbial growth, broth dilution; MTCC741; 24 h).
With `NCCCC[C@H](NC(=O)[C@@H]1CSCC(=O)N[C@@H](CCCCN)C(=O)N[C@@H](Cc2ccccc2)C(=O)N[C@@H](CCCCN)C(=O)NCCCC[C@@H]2NC(=O)[C@H](CCCCN)NC(=O)[C@H](Cc3ccccc3)NC(=O)[C@H](CCCCN)NC(=O)CSC[C@H](NC(=O)[C@H](Cc3ccccc3)NC(=O)[C@H](Cc3ccccc3)NC(=O)[C@H](CCCCN)NC2=O)C(=O)N[C@@H](Cc2ccccc2)C(=O)N[C@@H](Cc2ccccc2)C(=O)N[C@@H](Cc2ccccc2)C(=O)N1)C(N)=O` the MIC was over 256 µg/mL (PAO1; 18 h).
With `CC(C)CCCCCCCCCCCCc1cc(O)cc(O)c1` the MIC was over 64 µg/mL (broth microdilution; PAO1 chloramphenicol-resistant; 37 °C).
`CC(C)[C@H](NC(=O)[C@H](CCCCN)NC(=O)[C@H](CCCNC(=N)N)NC(=O)CNC(=O)[C@H](C)NC(=O)[C@H](CC(N)=O)NC(=O)[C@H](CCCNC(=N)N)NC(=O)[C@@H](NC(=O)[C@H](CCCCN)NC(=O)[C@H](CC(=O)O)NC(=O)[C@@H](NC(=O)[C@@H](NC(=O)[C@H](CCCNC(=N)N)NC(=O)[C@H](CCCNC(=N)N)NC(=O)[C@H](Cc1c[nH]c2ccccc12)NC(=O)[C@H](Cc1c[nH]c2ccccc12)NC(=O)CN)[C@@H](C)O)C(C)C)C(C)C)C(=O)O` has an MIC of over 256 µg/mL (clinical strain 110; 18 h, 37 °C).
The MIC of `CCCCCCCCC/C=C\CCCc1cc(=O)c2ccccc2n1C` is reported as over 256 µg/mL (broth microdilution; Luria-Bertani broth).
With `CC[C@@H](C)[C@@H](NC(=O)[C@@H](C)NC(=O)[C@H](NC(=O)[C@@H](CC(=O)O)NC(=O)[C@@H](CCCCN)NC(=O)[C@@H](CO)NC(=O)[C@H](NC(=O)[C@@H](CC(N)=O)NC(=O)[C@@H](C)NC(=O)[C@H](NC(=O)[C@@H](CCC(=O)O)NC(=O)[C@@H](CCCCN)NC(=O)[C@H](NC(=O)[C@H](NC(=O)[C@@H](Cc1c[nH]cn1)NC(=O)[C@@H](CCCCN)NC(=O)[C@H](NC(=O)[C@@H](CCCCN)NC(=O)[C@@H](CCCCN)NC(=O)[C@H](NC(=O)[C@@H](CC(C)C)NC(=O)[C@@H](CCCCN)NC(=O)[C@@H](CC(N)=O)NC(=O)[C@@H](Cc1ccccc1)NC(=O)[C@@H](CCCNC(=N)N)NC(=O)[C@@H](CCCCN)NC(=O)[C@@H](CCCNC(=N)N)NC(=O)[C@@H](Cc1ccccc1)NC(=O)CN)C(C)C)C(C)C)[C@H](C)O)[C@H](C)CC)[C@H](C)O)C(C)C)C(C)C)C(=O)N[C@@H](C(=O)N[C@H](C)C(=O)NCC(=O)N[C@H](CO)C(=O)NCC(=O)N[C@@H](C(=O)N[C@H](C)C(=O)N[C@@H](C(=O)NCC(=O)N[C@H](C)C(=O)N[C@H](C)C(=O)N[C@H](CCSC)C(N)=O)C(C)C)C(C)C)C(C)C` the MIC was 32 µg/mL (isolate RKI 93/12, CAMHB).
For `CC[C@H](C)[C@H](NC(=O)[C@H](Cc1c[nH]cn1)NC(=O)[C@H](CCCCNC(=O)[C@@H](NC(=O)[C@H](CCCCN)NC(=O)CSC[C@H](NC(=O)[C@H](Cc1ccccc1)NC(=O)[C@H](CCCCNC(=O)[C@H](CC(C)C)NC(=O)[C@H](CCCCN)NC(=O)[C@H](CCCCN)NC(=O)CCS[C@@H]1O[C@H](CO)[C@H](O)[C@H](O)[C@H]1O)NC(=O)[C@H](CC(C)C)NC(=O)[C@H](CCCCN)NC(=O)[C@H](CCCCN)NC(=O)C[C@@H]1O[C@@H](C)[C@@H](O)[C@@H](O)[C@@H]1O)C(N)=O)[C@@H](C)CC)NC(=O)[C@@H](NC(=O)[C@H](CCCCN)NC(=O)CSC[C@H](NC(=O)[C@H](Cc1ccccc1)NC(=O)[C@H](CCCCNC(=O)[C@H](CC(C)C)NC(=O)[C@H](CCCCN)NC(=O)[C@H](CCCCN)NC(=O)CCS[C@@H]1O[C@H](CO)[C@H](O)[C@H](O)[C@H]1O)NC(=O)[C@H](CC(C)C)NC(=O)[C@H](CCCCN)NC(=O)[C@H](CCCCN)NC(=O)C[C@@H]1O[C@@H](C)[C@@H](O)[C@@H](O)[C@@H]1O)C(N)=O)[C@@H](C)CC)C(N)=O`, the MIC was over 64 µM (PAO1, LB medium).
`CC(C)C[C@H](NC(=O)[C@H](CC(C)C)NC(=O)[C@H](CCCCN)NC(=O)CNC(=O)[C@H](CC(C)C)NC(=O)[C@H](CC(C)C)NC(=O)[C@H](CO)NC(=O)[C@H](CC(C)C)NC(=O)[C@H](CC(C)C)NC(=O)[C@H](CO)NC(=O)[C@H](CC(C)C)NC(=O)[C@H](CC(C)C)NC(=O)CN)C(N)=O` has an MIC of over 120 µM (broth microdilution).
The MIC of `CC(C)CCCCC(=O)N[C@@H](CCN)C(=O)N[C@H](C(=O)N[C@H](CCN)C(=O)N[C@H]1CCNC(=O)[C@H]([C@@H](C)O)NC(=O)[C@H](CCN)NC(=O)[C@H](CCN)NC(=O)[C@H]([C@@H](C)O)NC(=O)[C@@H](CC(C)C)NC(=O)[C@H](CCN)NC1=O)[C@@H](C)O` is reported as over 32 µg/mL (broth microdilution; FADDI-PA070, polymyxin resistant, CAMHB; 18 h, 37 °C).
With `CC(C)C[C@@H]1NC(=O)[C@H](CCCCN)NC(=O)CSC[C@@H]2NC(=O)[C@H](CC(C)C)NC(=O)[C@H](CC(C)C)NC(=O)[C@H](CCCCN)NC(=O)[C@H](CCCCNC(=O)[C@H](CCCCN)NC1=O)NC(=O)[C@H](CCCCN)NC(=O)[C@H](CC(C)C)NC(=O)[C@H](CCCCN)NC(=O)CSC[C@@H](C(=O)N[C@@H](CCCCN)C(N)=O)NC(=O)[C@H](CCCCN)NC(=O)[C@H](CC(C)C)NC(=O)[C@H](CC(C)C)NC2=O` the MIC was over 256 µg/mL (PAO1; 18 h).
With `CC(C)[C@@H]1NC(=O)[C@@H]2CCCN2C(=O)[C@@H](C)NC(=O)[C@H](CO)NC(=O)[C@H](C)NC(=O)[C@H](C(C)(C)C)NC(=O)[C@H](CCO)NC(=O)[C@H](Cc2c[nH]c3ccccc23)NC(=O)[C@H](CCO)NC(=O)[C@@H](CCN)NC(=O)[C@H](CCC(N)=O)NC(=O)[C@H](CCN)NC(=O)[C@H](Cc2ccc(O)cc2)NC(=O)[C@H]([C@@H](C)O)NC1=O` the MIC was over 64 µg/mL (broth microdilution; NDM-1, CAMHB with polysorbate-80; 16 h).

Repeated from above:
With `CC(C)C[C@@H]1NC(=O)[C@H](CCCCN)NC(=O)CSC[C@@H]2NC(=O)[C@H](CC(C)C)NC(=O)[C@H](CC(C)C)NC(=O)[C@H](CCCCN)NC(=O)[C@H](CCCCNC(=O)[C@H](CCCCN)NC1=O)NC(=O)[C@H](CCCCN)NC(=O)[C@H](CC(C)C)NC(=O)[C@H](CCCCN)NC(=O)CSC[C@@H](C(=O)N[C@@H](CCCCN)C(N)=O)NC(=O)[C@H](CCCCN)NC(=O)[C@H](CC(C)C)NC(=O)[C@H](CC(C)C)NC2=O` the MIC was over 256 µg/mL (PAO1; 18 h).
